Assay results from different studies.
Parts stem from different laboratories: compare values within a part only.
Chain of UniProt O14578 (whole entry, looked up): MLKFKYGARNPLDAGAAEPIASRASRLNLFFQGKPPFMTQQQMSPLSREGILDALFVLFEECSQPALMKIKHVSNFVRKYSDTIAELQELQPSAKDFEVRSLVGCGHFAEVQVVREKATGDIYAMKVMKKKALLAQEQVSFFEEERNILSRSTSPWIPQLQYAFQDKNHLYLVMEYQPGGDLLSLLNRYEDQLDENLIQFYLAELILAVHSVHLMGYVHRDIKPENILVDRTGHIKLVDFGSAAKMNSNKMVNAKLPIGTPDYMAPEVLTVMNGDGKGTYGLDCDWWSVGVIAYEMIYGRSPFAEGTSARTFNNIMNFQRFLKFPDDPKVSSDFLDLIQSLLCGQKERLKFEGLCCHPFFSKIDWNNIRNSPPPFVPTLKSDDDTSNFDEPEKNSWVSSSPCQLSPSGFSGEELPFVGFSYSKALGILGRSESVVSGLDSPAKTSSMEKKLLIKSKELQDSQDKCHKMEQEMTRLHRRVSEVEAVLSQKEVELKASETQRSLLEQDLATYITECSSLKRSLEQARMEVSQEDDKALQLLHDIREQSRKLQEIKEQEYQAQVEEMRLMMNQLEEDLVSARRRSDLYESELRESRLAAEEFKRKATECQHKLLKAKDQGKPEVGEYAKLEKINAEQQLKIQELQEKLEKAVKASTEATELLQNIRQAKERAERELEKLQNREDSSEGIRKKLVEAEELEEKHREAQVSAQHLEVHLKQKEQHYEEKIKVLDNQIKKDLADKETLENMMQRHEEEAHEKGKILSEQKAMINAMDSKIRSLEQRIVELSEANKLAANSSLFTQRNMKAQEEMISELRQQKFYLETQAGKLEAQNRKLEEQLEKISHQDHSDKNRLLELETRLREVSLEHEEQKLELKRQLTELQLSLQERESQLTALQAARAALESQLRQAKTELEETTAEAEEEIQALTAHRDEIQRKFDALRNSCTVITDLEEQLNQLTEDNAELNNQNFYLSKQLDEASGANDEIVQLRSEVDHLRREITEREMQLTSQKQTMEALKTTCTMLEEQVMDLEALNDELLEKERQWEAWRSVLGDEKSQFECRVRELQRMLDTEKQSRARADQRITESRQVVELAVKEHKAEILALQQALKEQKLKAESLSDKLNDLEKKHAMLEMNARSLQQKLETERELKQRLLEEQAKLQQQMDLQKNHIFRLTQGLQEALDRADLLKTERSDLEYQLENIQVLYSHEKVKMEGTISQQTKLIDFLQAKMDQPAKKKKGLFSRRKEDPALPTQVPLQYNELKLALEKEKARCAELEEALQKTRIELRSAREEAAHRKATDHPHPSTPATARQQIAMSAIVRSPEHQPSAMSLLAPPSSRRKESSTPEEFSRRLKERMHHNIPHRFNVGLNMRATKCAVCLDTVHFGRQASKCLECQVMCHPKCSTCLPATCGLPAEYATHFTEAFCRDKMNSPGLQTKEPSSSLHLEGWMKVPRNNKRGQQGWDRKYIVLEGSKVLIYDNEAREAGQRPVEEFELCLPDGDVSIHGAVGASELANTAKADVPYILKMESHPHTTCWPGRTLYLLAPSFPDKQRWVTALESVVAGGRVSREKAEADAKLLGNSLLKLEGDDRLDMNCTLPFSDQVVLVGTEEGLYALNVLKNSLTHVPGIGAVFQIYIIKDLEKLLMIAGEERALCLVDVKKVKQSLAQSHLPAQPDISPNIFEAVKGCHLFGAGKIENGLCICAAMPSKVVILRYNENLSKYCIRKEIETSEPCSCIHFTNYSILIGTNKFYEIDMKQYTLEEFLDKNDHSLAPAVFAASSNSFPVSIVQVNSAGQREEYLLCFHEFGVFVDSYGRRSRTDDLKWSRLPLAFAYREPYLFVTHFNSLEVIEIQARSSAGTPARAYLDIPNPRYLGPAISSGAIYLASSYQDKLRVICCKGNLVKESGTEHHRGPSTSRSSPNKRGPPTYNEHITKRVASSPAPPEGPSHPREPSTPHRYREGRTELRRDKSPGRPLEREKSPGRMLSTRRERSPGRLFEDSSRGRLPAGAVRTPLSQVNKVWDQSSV
Chain of UniProt P53671 (whole entry, looked up): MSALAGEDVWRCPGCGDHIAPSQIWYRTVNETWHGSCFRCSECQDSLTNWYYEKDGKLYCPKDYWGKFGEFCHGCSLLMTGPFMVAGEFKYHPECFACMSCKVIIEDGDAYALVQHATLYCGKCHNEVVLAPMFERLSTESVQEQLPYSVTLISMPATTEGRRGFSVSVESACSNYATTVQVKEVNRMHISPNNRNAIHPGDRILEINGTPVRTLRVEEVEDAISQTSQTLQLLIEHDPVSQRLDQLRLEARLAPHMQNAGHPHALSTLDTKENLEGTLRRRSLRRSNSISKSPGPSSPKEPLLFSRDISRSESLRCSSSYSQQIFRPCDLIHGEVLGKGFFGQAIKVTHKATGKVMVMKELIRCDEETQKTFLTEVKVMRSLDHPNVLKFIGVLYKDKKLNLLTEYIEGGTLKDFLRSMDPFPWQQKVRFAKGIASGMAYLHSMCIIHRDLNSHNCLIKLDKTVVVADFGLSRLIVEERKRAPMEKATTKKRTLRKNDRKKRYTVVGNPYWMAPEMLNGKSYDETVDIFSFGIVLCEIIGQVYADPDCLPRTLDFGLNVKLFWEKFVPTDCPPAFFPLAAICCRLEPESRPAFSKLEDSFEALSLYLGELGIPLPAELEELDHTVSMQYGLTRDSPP
Chain of UniProt Q02779 (whole entry, looked up): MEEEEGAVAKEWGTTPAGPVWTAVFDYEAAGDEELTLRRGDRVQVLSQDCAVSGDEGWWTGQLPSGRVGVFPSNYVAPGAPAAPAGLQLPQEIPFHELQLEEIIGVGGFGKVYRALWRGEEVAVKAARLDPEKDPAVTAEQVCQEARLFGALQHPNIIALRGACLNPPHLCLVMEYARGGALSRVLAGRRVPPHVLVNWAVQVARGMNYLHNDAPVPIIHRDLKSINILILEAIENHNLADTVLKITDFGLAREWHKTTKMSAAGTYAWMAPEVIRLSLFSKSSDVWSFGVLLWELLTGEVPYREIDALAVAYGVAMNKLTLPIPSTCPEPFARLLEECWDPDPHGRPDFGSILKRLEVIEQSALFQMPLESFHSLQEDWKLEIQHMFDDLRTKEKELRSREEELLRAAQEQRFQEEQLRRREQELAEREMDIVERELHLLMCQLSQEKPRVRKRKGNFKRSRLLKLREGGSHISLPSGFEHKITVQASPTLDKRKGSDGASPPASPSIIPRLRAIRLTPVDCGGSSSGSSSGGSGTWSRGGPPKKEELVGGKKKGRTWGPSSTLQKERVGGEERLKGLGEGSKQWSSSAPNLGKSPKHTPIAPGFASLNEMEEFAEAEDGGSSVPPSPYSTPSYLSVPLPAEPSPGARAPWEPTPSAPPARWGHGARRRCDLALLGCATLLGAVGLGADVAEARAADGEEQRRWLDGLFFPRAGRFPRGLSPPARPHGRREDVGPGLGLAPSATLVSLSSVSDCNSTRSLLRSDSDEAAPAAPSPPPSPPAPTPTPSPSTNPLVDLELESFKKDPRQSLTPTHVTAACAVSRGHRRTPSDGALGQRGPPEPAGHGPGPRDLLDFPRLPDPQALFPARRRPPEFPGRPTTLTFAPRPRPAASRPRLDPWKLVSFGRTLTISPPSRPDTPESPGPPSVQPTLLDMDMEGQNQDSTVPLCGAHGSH
Chain of UniProt Q92630 (whole entry, looked up): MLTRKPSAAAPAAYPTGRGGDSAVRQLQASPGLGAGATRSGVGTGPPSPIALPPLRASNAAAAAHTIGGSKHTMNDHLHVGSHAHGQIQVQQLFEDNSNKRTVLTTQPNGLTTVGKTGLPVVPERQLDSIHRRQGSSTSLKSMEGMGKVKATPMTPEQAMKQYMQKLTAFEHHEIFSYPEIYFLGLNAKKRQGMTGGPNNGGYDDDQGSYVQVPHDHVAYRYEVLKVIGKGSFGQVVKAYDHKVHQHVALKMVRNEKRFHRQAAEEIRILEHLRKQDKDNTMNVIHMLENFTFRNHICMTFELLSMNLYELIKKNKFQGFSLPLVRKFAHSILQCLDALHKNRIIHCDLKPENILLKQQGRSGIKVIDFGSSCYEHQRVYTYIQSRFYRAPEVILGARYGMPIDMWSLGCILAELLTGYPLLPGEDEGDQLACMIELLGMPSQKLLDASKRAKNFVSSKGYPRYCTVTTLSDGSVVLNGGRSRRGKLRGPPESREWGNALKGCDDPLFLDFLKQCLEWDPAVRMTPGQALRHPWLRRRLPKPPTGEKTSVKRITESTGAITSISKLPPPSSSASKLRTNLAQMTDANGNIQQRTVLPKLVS

Series 1
Target: Serine/threonine-protein kinase B-raf (BRAF, Homo sapiens, UniProt P15056)
Chain of UniProt P15056 (whole entry, looked up): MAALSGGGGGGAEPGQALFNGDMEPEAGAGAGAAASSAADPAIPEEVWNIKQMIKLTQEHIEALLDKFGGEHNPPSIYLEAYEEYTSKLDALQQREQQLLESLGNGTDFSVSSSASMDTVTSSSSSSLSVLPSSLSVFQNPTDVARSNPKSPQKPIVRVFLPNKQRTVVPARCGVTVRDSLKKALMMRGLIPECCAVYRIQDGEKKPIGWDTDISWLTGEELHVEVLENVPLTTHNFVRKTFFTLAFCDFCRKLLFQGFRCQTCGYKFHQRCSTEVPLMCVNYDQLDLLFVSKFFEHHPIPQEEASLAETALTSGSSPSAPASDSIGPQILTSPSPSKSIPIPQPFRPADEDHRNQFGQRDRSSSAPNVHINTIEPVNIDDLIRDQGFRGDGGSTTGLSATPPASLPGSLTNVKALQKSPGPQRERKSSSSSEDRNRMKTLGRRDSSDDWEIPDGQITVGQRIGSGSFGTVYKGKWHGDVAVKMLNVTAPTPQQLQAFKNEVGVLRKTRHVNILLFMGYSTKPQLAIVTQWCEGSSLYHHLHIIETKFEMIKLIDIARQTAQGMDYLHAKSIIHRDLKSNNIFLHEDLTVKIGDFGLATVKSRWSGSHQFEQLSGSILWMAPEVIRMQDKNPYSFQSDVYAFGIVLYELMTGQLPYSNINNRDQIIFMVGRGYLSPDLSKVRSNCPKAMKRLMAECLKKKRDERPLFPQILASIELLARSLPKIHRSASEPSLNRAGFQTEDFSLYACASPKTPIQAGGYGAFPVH
Observed: enzyme activity
Mode: inhibitor
Tested at: 0.5 µM
Relative to: control
| SMILES | remaining activity [%] |
| --- | --- |
| O=C(Nc1cccc(Nc2nccc(Nc3cccc(C(F)(F)F)c3)n2)c1)C1CC1 | 104 |
| CCN(CC)CCNC(=O)c1c(C)[nH]c(/C=C2\C(=O)Nc3ccc(Cl)cc32)c1C | 109 |
| O=C1c2ccccc2-c2n[nH]c3cccc1c23 | 109 |
| c1ccc(-c2[nH]ncc2-c2ccnc3ccccc23)nc1 | 95.7 |
| COc1cc2ncnc(Nc3cccc(Cl)c3)c2cc1OC | 96 |
| CCOc1nc(NC(=O)Cc2cc(OC)ccc2OC)cc(N)c1C#N | 99.1 |
| Nc1cccc(-c2cc3c(Oc4cccc(O)c4)ncnc3[nH]2)c1 | 53.2 |
| N#Cc1c(NC(=O)c2cccc3ccccc23)sc2c1CCCC2 | 95.2 |
| CCN(CC)CCNC(=O)c1c(C)[nH]c(/C=C2\C(=O)Nc3ccc(F)cc32)c1C | 106 |
| N#C/C(=C\c1ccc(O)c(O)c1)C(=O)NCc1ccccc1 | 109 |
| O=C1C(Cl)=C(N2C(=O)CCC2=O)C(=O)c2ccccc21 | 96.3 |
| CN(C)C[C@H]1CCn2c(c(C3=C(c4cn(C)c5ccccc45)C(=O)NC3=O)c3ccccc32)C1 | 95.2 |

Series 2
SMILES: Cc1nc(N2CC[C@@H](O)C2)ncc1-c1cc(C(F)(F)F)cc2[nH]ncc12
Method: competition with immobilised ligand
Tested at: 1 µM
| target | observed | remaining binding |
| --- | --- | --- |
| CDKL5 (Homo sapiens, UniProt O76039) | binding | 77% |
| ACVRL1 (Homo sapiens, UniProt P37023) | binding | 100% |
| TGFBR1 (Homo sapiens, UniProt P36897) | cell-free assay | 100% |
| LIM domain kinase 2 (LIMK2, Homo sapiens, UniProt P53671) | binding | 100% |
| Insulin receptor (INSR, Homo sapiens, UniProt P06213) | cell-free assay | 100% |
| PRKCI (Homo sapiens, UniProt P41743) | cell-free assay | 100% |
| PIK3CA (Homo sapiens, UniProt P42336, M1043I) | cell-free assay | 100% |
| CIT (Homo sapiens, UniProt O14578) | binding | 82% |
| MAP2K6 (Homo sapiens, UniProt P52564) | binding | 100% |
| LRRK2 (Homo sapiens, UniProt Q5S007) | binding | 58% |
| ULK2 (Homo sapiens, UniProt Q8IYT8) | binding | 66% |
| Tyrosine-protein kinase ABL1, phosphorylated (ABL1, Homo sapiens, UniProt P00519, M351T) | binding | 72% |
| PRKCQ (Homo sapiens, UniProt Q04759) | cell-free assay | 100% |
| STK17A (Homo sapiens, UniProt Q9UEE5) | cell-free assay | 100% |
| ALK (Homo sapiens, UniProt Q9UM73, L1196M) | cell-free assay | 98% |
| MAP3K10 (Homo sapiens, UniProt Q02779) | binding | 100% |
| DYRK2 (Homo sapiens, UniProt Q92630) | binding | 79% |
| MAP4K1 (Homo sapiens, UniProt Q92918) | binding | 100% |

Series 3
Cell line: A-375
Tested at: 100 µM
Time: 36 h
| SMILES | viability [%] |
| --- | --- |
| CC(=O)O[C@H]1C[C@@H]2CC[C@@H]3[C@H](CC[C@@]4(C)[C@H]3C[C@H]([N+]3(C)CCCCC3)[C@@H]4OC(C)=O)[C@@]2(C)C[C@@H]1N1CCCCC1 | 107 |
| COc1ccccc1OCC(O)COC(N)=O (stereo not shown) | 88.9 |
| O=C(N/N=C/c1ccc([N+](=O)[O-])o1)c1ccc(O)cc1 | 4.78 |
| CCCCCCCCCCCCCCCC(=O)OC/C=C(C)/C=C/C=C(C)/C=C/C1=C(C)CCCC1(C)C | 47.7 |
| COc1cc(NS(=O)(=O)c2ccc(N)cc2)nc(OC)n1 | 54.5 |

Series 4
Cell line: mouse MPNST tumor cells
Method: high-content nuclear imaging
Item: cell number
Tested at: 10 µM
Time: 12 h
Setting: mean of 2 replicates
Relative to: plate mean
Direction: higher = more cells
| Compound | nuclei count |
| --- | --- |
| Cc1ccc(/C=N/NC(=O)c2ccccc2Oc2ccccc2)o1 | 0.71 z-score |
| Cc1csc(NC(=O)c2cc(F)cc(Oc3cncnc3)c2)n1 | 1.06 z-score |
| COc1cc(C)c(Sc2cnc(NC(=O)c3ccc(CNC(C)C(C)(C)C)cc3)s2)cc1C(=O)N1CCN(C(C)=O)CC1 (stereo not shown) | -3.99 z-score |
| CCCCCCOc1cc2c(cc1N(C)c1ncc(C(=O)O)cn1)C(C)(C)CCC2(C)C | 1.27 z-score |
| CS(=O)(=O)Nc1ccc([N+](=O)[O-])cc1Oc1ccccc1 | -0.647 z-score |

Some of these lines once more (series 2):
| target | observed | remaining binding |
| --- | --- | --- |
| Tyrosine-protein kinase ABL1, phosphorylated (ABL1, Homo sapiens, UniProt P00519, M351T) | binding | 72% |
| DYRK2 (Homo sapiens, UniProt Q92630) | binding | 79% |
| PRKCQ (Homo sapiens, UniProt Q04759) | cell-free assay | 100% |
| STK17A (Homo sapiens, UniProt Q9UEE5) | cell-free assay | 100% |
| MAP2K6 (Homo sapiens, UniProt P52564) | binding | 100% |
| PRKCI (Homo sapiens, UniProt P41743) | cell-free assay | 100% |
| Insulin receptor (INSR, Homo sapiens, UniProt P06213) | cell-free assay | 100% |
